Assay results of several laboratories.
Each line is one published result; not all experiments were run side by side. Values joined by “and” are separate records of one study, mostly repeats; a detail may differ. ± gives the spread as reported.
APP Aβ40 fibrils: Amyloid-beta precursor protein, Aβ40 fibrils (APP, Homo sapiens, UniProt P05067)
APP: Amyloid-beta precursor protein (APP, Homo sapiens, UniProt P05067)

For CC(=O)N[C@H]1CC(=O)N[C@@H](Cc2ccccc2)C(=O)N[C@@H](CCCNC(=N)N)C(=O)N[C@H](C(=O)N[C@@H](CC(=O)O)C(=O)N[C@H](C(=O)N[C@@H](CCCNC(=N)N)C(=O)N[C@@H](C)C(=O)N[C@@H](CCCNC(=N)N)C(=O)N[C@@H](CCC(=O)O)C(=O)N[C@@H](C)C(=O)N[C@@H](CCC(=O)O)C(N)=O)C(C)C)CNC1=O, the Kd was 19 µM (APP Aβ40 fibrils; binding to Aβ40 fibrils, fluorescence polarization; 24 h, pH 7.4, 25 °C, with: 100 µM Aβ40 fibrils).
O=C(O)c1cc(Cl)cc(NC(=O)C(F)(F)F)c1 gave a Kd of 4 µM (Amyloid-beta precursor protein, amyloid-beta 1-40 oligomers (APP, Homo sapiens, UniProt P05067); binding).
For CC(=O)N[C@H]1CC(=O)N[C@@H](Cc2ccccc2)C(=O)N[C@@H](CCCNC(=N)N)C(=O)N[C@H](C(=O)N[C@@H](CC(=O)O)C(=O)N[C@H](C(=O)N[C@@H](CCCNC(=N)N)C(=O)N[C@@H](C)C(=O)N[C@@H](CCC(=O)O)C(=O)N[C@@H](CCCNC(=N)N)C(=O)N[C@@H](C)C(=O)N[C@@H](CCC(=O)O)C(N)=O)C(C)C)CNC1=O, the Kd was 16.5 µM (Amyloid-beta precursor protein, Aβ40 oligomers (APP, Homo sapiens, UniProt P05067); binding to amyloid-beta 40 oligomers, fluorescence polarization; pH 7.4, with: 20 nM FITC-labelled peptide).
For CC[C@H](C)[C@@H]1NC(=O)CNC(=O)[C@H](CCSC)NC(=O)[C@H](C(C)C)NC(=O)[C@H]([C@@H](C)O)NC(=O)[C@@H]2CSSC[C@@H]3NC(=O)[C@H](Cc4c[nH]cn4)NC(=O)[C@@H](NC(=O)[C@@H](NC(=O)[C@H](Cc4ccccc4)NC(=O)[C@H](C)N)[C@@H](C)O)CSSC[C@@H](C(=O)N[C@@H](CC(C)C)C(=O)O)NC(=O)[C@H](CSSC[C@H](NC(=O)[C@H](CO)NC(=O)[C@H](CCCNC(=N)N)NC(=O)[C@H](CCCNC(=N)N)NC3=O)C(=O)N[C@@H](Cc3ccc(O)cc3)C(=O)N[C@@H](CO)C(=O)N[C@@H]([C@@H](C)O)C(=O)N[C@@H](CCC(=O)O)C(=O)N[C@@H](Cc3ccc(O)cc3)C(=O)N[C@@H](CO)C(=O)N[C@@H](Cc3ccc(O)cc3)C(=O)NCC(=O)N[C@@H]([C@@H](C)O)C(=O)N2)NC(=O)[C@H](Cc2ccccc2)NC(=O)[C@H](CCCNC(=N)N)NC(=O)[C@H](Cc2c[nH]cn2)NC(=O)[C@H](CC(N)=O)NC1=O, the Kd was 0.356 µM (APP; binding, SPR; pH 7.4).
CC(C)C[C@H](NC(=O)[C@@H](N)Cc1ccccc1)C(=O)O has a Kd of 112 ± 53 µM (Amyloid-beta precursor protein, amyloid-beta 1-40 E22A (APP, Homo sapiens, UniProt P05067, E693A); concentration not given).
COc1ccc2c(=O)c(OC)c(-c3ccc(OC)c(OC)c3)oc2c1 has an IC50 of 155 µM (APP; amyloid aggregation, inhibitor, fluorescence).
With CCOC(=O)/C=C/c1c(-c2ccc(C)cc2)nc2ccc(/N=N/c3ccc([N+](=O)[O-])cc3)cc2c1-c1ccccc1 the Ki was 0.168 ± 0.017 µM (APP Aβ40 fibrils; thioflavin T competition; with: preformed fibrils 5 µM, thioflavin T 2 µM; binding).
COC1(c2ccccc2)CC(=O)c2c(cc3c(c2O)C=CC(C)(C)O3)O1 (stereo not shown) gave an IC50 of > 200 µM (APP; amyloid aggregation, inhibitor, fluorescence).
For CC(=O)N[C@H]1CC(=O)N[C@@H](Cc2ccccc2)C(=O)N[C@@H](CC(=O)O)C(=O)N[C@H](C(=O)N[C@@H](CCCNC(=N)N)C(=O)N[C@H](C(=O)N[C@@H](CCCNC(=N)N)C(=O)N[C@@H](C)C(=O)N[C@@H](CCC(=O)O)C(=O)N[C@@H](CCCNC(=N)N)C(=O)N[C@@H](C)C(=O)N[C@@H](CCC(=O)O)C(N)=O)C(C)C)CNC1=O, the Kd was 25.1 µM (APP Aβ40 fibrils; isothermal titration calorimetry; sodium phosphate buffer; pH 8, 25 °C, peptide titrated into protein).
COc1c2c(cc3oc(-c4ccccc4)cc(=O)c13)OC(C)(C)C=C2 has an IC50 of > 200 µM (APP; amyloid aggregation, inhibitor, fluorescence).
C[C@@H]1NC(=O)C[C@H](NC(=O)CCNC(=S)Nc2ccc3c(c2)C(=O)OC32c3ccc(O)cc3Oc3cc(O)ccc32)C(=O)NC[C@@H](C(=O)N[C@@H](CC(=O)O)C(=O)N[C@@H](C)C(=O)N[C@@H](CCCNC(=N)N)C(=O)N[C@@H](C)C(=O)N[C@@H](CCC(=O)O)C(=O)N[C@@H](CCCNC(=N)N)C(=O)N[C@@H](C)C(=O)N[C@@H](CCC(=O)O)C(N)=O)NC(=O)[C@H](CCCNC(=N)N)NC1=O gave a Kd of ~12.9 µM (APP Aβ40 fibrils; binding to Aβ40 fibrils, fluorescence polarization; 24 h, pH 7.4, 25 °C, with: 100 µM Aβ40 fibrils).
Ic1ccccc1/N=N/c1ccc2nc(-c3ccccc3)cc(-c3ccccc3)c2c1 gave a Ki of 0.177 ± 0.015 µM (APP Aβ40 fibrils; thioflavin T competition; with: preformed fibrils 5 µM, thioflavin T 2 µM; binding).
With COc1cc2c(=O)cc(-c3ccccc3)oc2c2c1OC(C)(C)C=C2 the IC50 was 85 µM and 85.1 µM (APP; amyloid aggregation, inhibitor, fluorescence).

Some of these lines once more:
For CC(=O)N[C@H]1CC(=O)N[C@@H](Cc2ccccc2)C(=O)N[C@@H](CC(=O)O)C(=O)N[C@H](C(=O)N[C@@H](CCCNC(=N)N)C(=O)N[C@H](C(=O)N[C@@H](CCCNC(=N)N)C(=O)N[C@@H](C)C(=O)N[C@@H](CCC(=O)O)C(=O)N[C@@H](CCCNC(=N)N)C(=O)N[C@@H](C)C(=O)N[C@@H](CCC(=O)O)C(N)=O)C(C)C)CNC1=O, the Kd was 25.1 µM (APP Aβ40 fibrils; isothermal titration calorimetry; sodium phosphate buffer; pH 8, 25 °C, peptide titrated into protein).
COc1c2c(cc3oc(-c4ccccc4)cc(=O)c13)OC(C)(C)C=C2 has an IC50 of > 200 µM (APP; amyloid aggregation, inhibitor, fluorescence).
